Measurements of several laboratories.
Lines come from different studies, so protocols differ. Values joined by “and” are separate records of one study, mostly repeats; a detail may differ.
Target: Beta-2 adrenergic receptor (ADRB2, Homo sapiens, UniProt P07550)

The inhibition of `N[C@H](C(=O)N1CCCC1)C1CCN(c2nccc3c(-c4ncc(Cl)cc4Cl)cccc23)CC1` is reported as -8% (functional response, antagonist; 10 µM).
`O=C(O)c1ccc(-c2nc(-c3ccccc3Cl)c3sccn23)cc1` has a specific binding of 105% and 95.9% (radioligand binding; 10 µM, with: ICI118551; reference: control).
For `COc1ccc(F)cc1S(=O)(=O)Nc1cnc2c(c1)C(=O)NCCO2`, the inhibition was 4% (ligand displacement, radioligand; 10 µM).
`C/C(=N\OCCCN1CCCCC1)c1ccc(C(F)(F)F)cc1` gave an activation of 5.13% (agonist, cAMP; 10 µM).
The inhibition of `Cc1sc2c(c1C)C(c1ccc(Cl)cc1)=NC(CC(=O)OC(C)(C)C)c1nnc(C)n1-2` (centres unmarked) is reported as 4% (ligand displacement, radioligand; 1 µM).
With `CN[C@@H]1[C@H](O)[C@H](NC)[C@H]2O[C@]3(O)[C@H](O[C@@H]2[C@H]1O)O[C@H](C)C[C@H]3NC(=O)Cc1cc(Cl)ccn1` the inhibition was 4% (ligand displacement, radioligand; 10 µM).
With `CCN(CC)CCOc1ccc(-c2nnn(Cc3ccc(OC)cc3)c2N)cc1` the inhibition was -13.4% (radioligand binding; HEK293; 10 µM, safety profiling).
`CS(C)(=O)=Nc1ccc(-c2ccc(-c3nc4cc(O[C@@H]5CO[C@H]6[C@@H]5OC[C@H]6O)[nH]c4cc3F)cc2)cc1` gave an inhibition of -5% (calcium signal, antagonist; 10 µM).
`Cc1cc(-c2ccc3ccccc3c2)nnc1NCCN1CCN(C)CC1` — result for antagonist activity: “negative” (antagonist; concentration not given).
`C[C@H](NCc1ccc(-c2ccc(C(F)(F)F)cc2)cc1)C(N)=O` gave an inhibition of 0% (radioligand binding, SafetyScreen panel; 1 µM, species human, with: 0.20 nM [3H]CGP-12177).
`Cc1cc(Nc2nc(C[C@@]3(C(=O)O)CCN(Cc4cccc(Cl)c4F)[C@H](C)C3)cc(C)c2F)[nH]n1` gave an activation of 0.02% (agonist; 10 µM).
The bias factor of `Cl.Fc1ccc(Nc2nc(NC3CCNCC3)c3cc(Cl)ccc3n2)cc1F` is reported as 4 fold (β-arrestin2 recruitment, PathHunter and GloSensor; reference: GloSensor IC50 over PathHunter IC50).
The inhibition of `CCOC(=O)[C@](CC)(CCCSCCOCCOCCNC(=O)c1ccc(-c2c3ccc(=N)c(S(=O)(=O)O)c-3oc3c(S(=O)(=O)O)c(N)ccc23)c(C(=O)O)c1)NC(=O)c1ccc(C2CC2)c(Cc2ccc(F)cc2)n1` is reported as 7% (ligand displacement, radioligand; 10 µM).
The inhibition of `CCc1nnc(-c2c(OC)cc(-c3cnc4cc(-c5cnn(C)c5)ccn34)cc2OC)o1` is reported as 0% (specific binding, antagonist, radioligand binding; 10 µM; reference: control specific binding).
